# Assay results collected from several papers.
# Protocols differ between the studies behind these lines.
# Organism: Staphylococcus aureus
Substance,assay,system,conditions,MIC
CC[C@H](C)[C@H](NC(=O)[C@H](CCCNC(=N)N)NC(=O)[C@H](CC(C)C)NC(=O)[C@H](CCC(N)=O)NC(=O)[C@H](CCCCN)NC(=O)[C@H](CC(C)C)NC(=O)[C@H](CC(C)C)NC(=O)[C@H](CC(C)C)NC(=O)[C@@H](NC(=O)[C@H](CCCCN)NC(=O)[C@H](CC(=O)O)NC(=O)[C@H](C)NC(=O)[C@@H](NC(=O)[C@H](CCCCN)NC(=O)[C@H](CCCCN)NC(=O)[C@H](CC(=O)O)NC(=O)[C@@H](NC(=O)[C@@H](N)Cc1c[nH]cn1)C(C)C)C(C)C)C(C)C)C(=O)N[C@@H](CCSC)C(=O)N[C@@H](CCCNC(=N)N)C(=O)N[C@@H](CC(C)C)C(=O)N[C@@H](CC(C)C)C(=O)N[C@H](C(=O)N[C@@H](CCCNC(=N)N)C(=O)N[C@@H](CC(C)C)C(=O)O)[C@@H](C)O,broth microdilution,USA300 LAC,37 °C,> 81 µM
actinomycin Y4,broth microdilution,ATCC 6538,16 to 48 h,> 9.32 µg/mL
CC[C@H](C)[C@H](NC(=O)[C@H](C)NC(=O)[C@H](CCCCN)NC(=O)[C@H](CC(C)C)NC(=O)[C@H](C)NC(=O)[C@@H](NC(=O)[C@H](Cc1c[nH]cn1)NC(=O)[C@H](CC(C)C)NC(=O)[C@@H](NC(=O)[C@@H](NC(=O)[C@H](CCCCN)NC(=O)[C@H](CCCCN)NC(=O)[C@H](C)NC(=O)[C@H](CO)NC(=O)[C@H](CCCCN)NC(=O)[C@H](Cc1ccccc1)NC(=O)[C@@H](NC(=O)[C@H](CCCCN)NC(=O)[C@H](CC(C)C)NC(=O)[C@H](Cc1ccccc1)NC(=O)[C@H](CO)NC(=O)[C@H](CCCCN)NC(=O)[C@H](Cc1c[nH]c2ccccc12)NC(=O)[C@H](CCCCN)NC(C)=O)[C@@H](C)O)[C@@H](C)O)C(C)C)[C@@H](C)O)C(=O)N[C@@H](CO)C(=O)N[C@@H](CO)C(N)=O,broth dilution,"ATCC 25923, Mueller-Hinton broth","24 h, 37 °C",16 µg/mL
plantazolicin,,NRS384 USA300 CA-MRSA,"12 h, 37 °C",> 48 µM
CC(C)C[C@H](NC(=O)CN)C(=O)N[C@@H](C)C(=O)N[C@@H](CC(=O)O)C(=O)N[C@@H](Cc1ccccc1)C(=O)N[C@@H](CC(C)C)C(=O)N[C@@H](CC(N)=O)C(=O)N[C@@H](CCCCN)C(=O)N[C@@H](C)C(=O)N[C@H](C(=O)NCC(=O)N[C@@H](CCCCN)C(=O)N[C@H](C(=O)N[C@H](C(=O)N[C@@H](CC(=O)O)C(=O)N[C@@H](Cc1ccccc1)C(=O)N[C@H](C(=O)N[C@@H](CCCCN)C(=O)N[C@@H](CO)C(N)=O)C(C)C)C(C)C)C(C)C)C(C)C,broth microdilution,USA300 LAC,37 °C,> 100 µM
CCCCCCC1CC(=O)c2c(O)cc(O)cc2O1 (stereo not shown),broth microdilution,MRSA NRS70,,3.13 to 6.25 µg/mL
C[C@H](N)C(=O)N[C@@H](CS)C(=O)N1CCC[C@H]1C(=O)N[C@@H](Cc1c[nH]cn1)C(=O)N[C@@H](CCCNC(=N)N)C(=O)N[C@@H](CS)C(=O)O,broth microdilution,MTCC 96,37 °C,125 µg/mL
Cc1nc2ccccc2n(-c2ccc([N+](=O)[O-])cc2[N+](=O)[O-])c1=O,microbial growth,ATCC25923,,32.2 µg/mL
CC[C@H](C)[C@H](NC(=O)CNC(=O)[C@H](CCCNC(=N)N)NC(=O)[C@H](Cc1ccccc1)NC(=O)[C@@H](NC(=O)[C@H](Cc1c[nH]cn1)NC(=O)[C@H](Cc1c[nH]cn1)NC(=O)[C@H](Cc1ccccc1)NC(=O)[C@@H](N)Cc1ccccc1)[C@@H](C)CC)C(=O)N[C@H](C(=O)N[C@@H](Cc1c[nH]cn1)C(=O)N[C@H](C(=O)NCC(=O)N[C@@H](CCCCN)C(=O)N[C@H](C(=O)N[C@@H](C)C(=O)N[C@@H](Cc1c[nH]cn1)C(=O)N[C@@H](CCCNC(=N)N)C(=O)N[C@@H](CC(C)C)C(=O)N[C@H](C(=O)N[C@H](C(=O)NCC(N)=O)[C@@H](C)O)C(C)C)[C@@H](C)O)C(C)C)C(C)C,broth microdilution,ATCC 25923,"18 h, 37 °C",3.1 µg/mL
CC[C@H](C)[C@H](NC(=O)[C@H](CC(=O)O)NC(=O)[C@H](Cc1ccccc1)NC(=O)[C@H](CC(C)C)NC(=O)CN)C(=O)N[C@H](C(=O)N[C@@H](CCCCN)C(=O)N[C@@H](CCCCN)C(=O)N[C@H](C(=O)N[C@H](C(=O)NCC(=O)N[C@@H](C)C(=O)N[C@@H](CC(C)C)C(=O)NCC(N)=O)C(C)C)C(C)C)C(C)C,,"ATCC 43300, CAMHB","18 h, 37 °C",> 23 µM
CC[C@H](C)[C@H](NC(=O)[C@H](CCCCN)NC(=O)[C@H](CCC(=O)O)NC(=O)[C@H](CCCCN)NC(=O)[C@H](CO)NC(=O)[C@H](CCCCN)NC(=O)[C@H](CCCNC(=N)N)NC(=O)[C@H](Cc1ccccc1)NC(=O)[C@H](Cc1ccccc1)NC(=O)[C@H](CC(=O)O)NC(=O)CNC(=O)[C@H](CC(C)C)NC(=O)[C@@H](N)CC(C)C)C(=O)NCC(=O)N[C@@H](CCCCN)C(=O)N[C@@H](CCC(=O)O)C(=O)N[C@@H](Cc1ccccc1)C(=O)N[C@@H](CCCCN)C(=O)N[C@@H](CCCNC(=N)N)C(=O)N[C@H](C(=O)N[C@H](C(=O)N[C@@H](CCC(N)=O)C(=O)N[C@@H](CCCNC(=N)N)C(=O)N[C@H](C(=O)N[C@@H](CCCCN)C(=O)N[C@@H](CC(=O)O)C(=O)N[C@@H](Cc1ccccc1)C(=O)N[C@@H](CC(C)C)C(=O)N[C@@H](CCCNC(=N)N)C(=O)N[C@@H](CC(N)=O)C(=O)N[C@@H](CC(C)C)C(=O)N[C@H](C(=O)N1CCC[C@H]1C(=O)N[C@@H](CCCNC(=N)N)C(=O)N[C@H](C(=O)N[C@@H](CCC(=O)O)C(=O)N[C@@H](CO)C(=O)O)[C@@H](C)O)C(C)C)[C@@H](C)CC)C(C)C)[C@@H](C)CC,,JE2 wild type,"37 °C, 50% or 12.5% TSB",3.1 µM
CC(C)C[C@H](NC(=O)[C@H](C)NC(=O)CNC(=O)[C@H](CC(C)C)NC(=O)[C@H](CC(C)C)NC(=O)[C@H](CCCCN)NC(=O)[C@H](CCCCN)NC(=O)[C@H](CC(C)C)NC(=O)[C@H](CC(C)C)NC(=O)[C@H](CCCCN)NC(=O)[C@H](CC(C)C)NC(=O)[C@H](CC(C)C)NC(=O)[C@@H](N)CCCCN)C(=O)NCC(N)=O,,"SH1000 GFP-expressing, nutrient broth","20 h, 37 °C",10 µM
CC(C)C[C@H](NC(=O)[C@H](CCC(=O)O)NC(=O)[C@H](CCC(=O)O)NC(=O)[C@@H](NC(=O)[C@H](CCCNC(=N)N)NC(=O)[C@H](CCC(N)=O)NC(=O)[C@@H](N)CCCNC(=N)N)C(C)C)C(=O)N[C@@H](CO)C(=O)N[C@@H](CCCCN)C(=O)N[C@@H](Cc1ccccc1)C(=O)N[C@@H](CO)C(=O)N[C@@H](CCCCN)C(=O)N[C@@H](CCCCN)C(=O)NCC(=O)N[C@@H](C)C(=O)N[C@@H](C)C(=O)N[C@@H](C)C(=O)N[C@@H](CCCNC(=N)N)C(=O)N[C@@H](CCCNC(=N)N)C(=O)N[C@@H](CCCNC(=N)N)C(=O)N[C@@H](CCCCN)C(=O)O,broth microdilution,USA300 LAC,37 °C,> 84 µM
